Assay results from different studies.
Numbers after ± are the reported error.

CC[C@H](C)[C@@H]1NC(=O)[C@H](CC(=O)O)NC(=O)[C@H](CC(=O)O)NC(=O)[C@@H]2CCCN2C(=O)[C@H]2CCCN2C(=O)[C@H](CC(=O)O)NC(=O)[C@H](Cc2ccc(O)cc2)NC(=O)[C@H]([C@@H](C)CC)NC(=O)[C@H](CO)NC(=O)[C@H](CCCCN)NC1=O
solubility (water; complete dissolution at NMR concentration): ≥ 2500 µg/mL

CC(=Nc1ccccc1)c1c(C)cc(=O)n(O)c1O
solubility (pH 6.5): ≥ 200 µM

COc1cc(/C=C/C(=O)/C=C/c2ccc(O)c(OC)c2)ccc1O
solubility (HPLC; polyethylene glycol 400): 86200 ± 4340 µg/mL

Nc1ccn(CC2COP(=O)(OCCCCCCNC(=O)CCCCC3SCC4NC(=O)NC43)CO2)c(=O)n1 (mixture of isomers)
solubility: 17300 ± 1020 µg/mL

Cc1c(-c2ccc(Cc3ccc(OC(F)(F)F)cc3)cc2)[nH]c2cccc(F)c2c1=O
solubility (dichloromethane; 24 h): 3300 µM

CCCCCCCCCCCC(=O)O[C@@H](C(=O)O[C@H]1C[C@@]2(O)[C@@H](OC(=O)c3ccccc3)[C@@H]3[C@]4(OC(C)=O)CO[C@@H]4C[C@H](O)[C@@]3(C)C(=O)[C@H](O)C(=C1C)C2(C)C)[C@@H](NC(=O)OC(C)(C)C)c1ccccc1
solubility (BALB/c mouse plasma; 24 h, room temperature): 377 ± 21.5 µg/mL

CC(C)C[C@H](NC(=O)[C@H](CC(C)C)NC(=O)[C@H](CCCNC(=N)N)NC(=O)[C@@H](N)CC(N)=O)C(=O)N[C@@H](CC(C)C)C(=O)N[C@H](C(=O)NCC(=O)O)[C@@H](C)O
solubility: ~1500 µM

CC1(C)C(/C=C/C2=C(Cl)C(=C/C=C3/N(CCCCCC(=O)O)c4ccccc4C3(C)C)/C[N+](C)(C)C2)=[N+](CCCCCC(=O)O)c2ccccc21
solubility (UV absorbance; PBS): 50 µM

CCCCCCCCCCCCCCCCCCCCCC(=O)O[C@@H](C(=O)O[C@H]1C[C@@]2(O)[C@@H](OC(=O)c3ccccc3)[C@@H]3[C@]4(OC(C)=O)CO[C@@H]4C[C@H](O)[C@@]3(C)C(=O)[C@H](O)C(=C1C)C2(C)C)[C@@H](NC(=O)OC(C)(C)C)c1ccccc1
solubility (Miglyol 808; 24 h, room temperature): 553000 ± 21000 µg/mL

Cc1cccc(-c2cc(C#N)cc(Oc3c(C(F)(F)F)ccn(Cc4n[nH]c(=O)n4C)c3=O)c2)c1
solubility (HPLC; aqueous buffer; pH 2.0): 1.9 µg/mL

O=C(N=P12CN3CN(CN(C3)C1)C2)c1cccc[c]1[Pd].O=C(N=P12CN3CN(CN(C3)C1)C2)c1cccc[c]1[Pd]([Br])[Br]
solubility (DMSO:water 1:99): 400 µM

O=C1CC[C@H](N2Cc3cc(-c4ccn5ncc(Cl)c5n4)ccc3C2=O)C(=O)N1
solubility (DMSO): 20000 µM

CCCC1OC2CC3C4CCC5=CC(=O)C=CC5(C)C4C(O)CC3(C)C2(C(=O)COC(=O)C(N)Cc2ccccc2)O1 (stereo not drawn)
solubility (HPLC; water; 72 h, 25 °C): 0.0035 g/100 g

CC[C@H](C)[C@H](NC(=O)[C@H](CC(N)=O)NC(=O)[C@H](CCC(=O)O)NC(=O)[C@H](CCC(=O)O)NC(=O)[C@H](CCC(=O)O)NC(C)=O)C(=O)N[C@@H](Cc1ccc(OP(=O)(O)O)cc1)C(=O)N[C@@H](CO)C(=O)N[C@H](C(=O)N1CCC[C@H]1C(=O)N[C@@H](Cc1c[nH]cn1)C(=O)N[C@@H](CC(=O)O)C(=O)N[C@@H](CO)C(=O)N[C@H](C(N)=O)[C@@H](C)O)C(C)C
solubility (Tris buffer; pH 7.4): 5000 µg/mL

O=C1c2ccc(S(=O)(=O)O)cc2C(=O)c2cc(S(=O)(=O)O)ccc21
solubility (UV-vis spectroscopy; 1 M H2SO4 with 20 wt% sodium xylenesulfonate): 390000 ± 60000 µM

NS(=O)(=O)c1ccc(C(=O)NC2OC[C@H](O)[C@H](O)[C@H]2O)cc1 (stereo in doubt)
solubility (water): 1.5%

O=S(=O)(O)c1cc(O)c(O)c(S(=O)(=O)O)c1
solubility (UV-vis spectroscopy; 1 M H2SO4 without hydrotrope; pH 0): 520000 ± 10000 µM

COc1ccc2ccc3c(c2c1)C=[N+]1C2CCCCC2[N+]2=Cc4ccc(OCCN5CCCCC5)cc4[O][Au-]21[O]3.F[P-](F)(F)(F)(F)F (stereo not drawn)
solubility (PBS-DMF; pH 7.4): 127 µM

NS(=O)(=O)NCC(F)(F)c1ccccc1F
solubility (shake-flask; water; pH 1.2): 7600 µg/mL

CC(C)(O)Cn1cc(-c2ccc3nc(OC(F)F)ccc3c2)c2c(N)ncnc21
solubility (pH 6.5): 82.2 µM

[2H]C([2H])(c1ccccc1)C([2H])([2H])N1C(=O)CC(=O)N(C([2H])([2H])C([2H])([2H])c2ccccc2)C1=O
solubility: 62.5 µM

CCCCCCCCCCCCCCCCCC(=O)O[C@@H](C(=O)O[C@H]1C[C@@]2(O)[C@@H](OC(=O)c3ccccc3)[C@@H]3[C@]4(OC(C)=O)CO[C@@H]4C[C@H](O)[C@@]3(C)C(=O)[C@H](O)C(=C1C)C2(C)C)[C@@H](NC(=O)OC(C)(C)C)c1ccccc1
solubility (Miglyol 808; 24 h, room temperature): 550000 ± 23500 µg/mL

CN(Cc1cc(C2CC2)on1)C(=O)c1cccc(-c2ccc3c(c2)CCO3)c1
solubility (RPMI/MOPS medium): 64 µg/mL

NS(=O)(=O)c1ccc(C(=O)N[C@@H]2O[C@H](CO)[C@H](O)[C@H](O)[C@H]2O)cc1
solubility (water): 2.5%

CC(C)=CCC[C@](C)(O)[C@H]1CC[C@]2(C)[C@@H]1[C@H](O)C[C@@H]1[C@@]3(C)CC[C@H](O)C(C)(C)[C@@H]3CC[C@]12C
solubility (limonene; 72 h, 25 °C): 1540 ± 258 µg/mL

Cc1ccc(N2C(=O)c3ccccc3NC23C(=O)N(C)c2ccc(Br)cc23)cc1 (stereo not drawn)
solubility (dried DMSO stock; PBS; pH 7.4): 0.2 to 1.4 µM

O=C(O)c1ccc(/C=C2\SC(=S)N(Cc3cccc(C(F)(F)F)c3)C2=O)cc1
solubility (DMSO:Solutol HS 15:saline; pH 9.0, 10%:10%:80%): 5000 µg/mL

CC(C)(O)Cn1nc(-c2ccc3nc(OC(F)F)ccc3c2)c2c(N)ncnc21
solubility (pH 2): 95.1 µM

Cc1cc2c(cc1C1(c3ncc(C(=O)O)cn3)CC1)C(C)(C)CCC2(C)C
solubility (deionized water; 24 h, 20 °C): 67 ± 1 µM

COc1cc(-c2nc3ccc(C(=O)NCCCN4CCN(c5cccc(C)c5C)CC4)cc3n2C2CCC2)cc(OC)c1OC
solubility (dynamic solubility): 10.4 µM

c1cc2nc(-c3ccc(-c4nc5ccc(C6=NCCN6)cc5[nH]4)[se]3)[nH]c2cc1C1=NCCN1
solubility (maximal concentration without aggregation; Tris buffer): ≤ 0.1 µM

NS(=O)(=O)c1ccc(C(=O)N[C@@H]2O[C@H](CO)[C@@H](O)[C@H]2O)cc1
solubility (water): 2.5%

C=C(c1ccc(C(=O)O)c(F)c1)c1cc2c(cc1C)C(C)(C)C=CC2(C)C
solubility (deionized water; 24 h, 20 °C): 15 ± 1 µM
